Published values from different studies.
± gives the spread as reported.
UniProt P33261, sequence (whole entry, looked up): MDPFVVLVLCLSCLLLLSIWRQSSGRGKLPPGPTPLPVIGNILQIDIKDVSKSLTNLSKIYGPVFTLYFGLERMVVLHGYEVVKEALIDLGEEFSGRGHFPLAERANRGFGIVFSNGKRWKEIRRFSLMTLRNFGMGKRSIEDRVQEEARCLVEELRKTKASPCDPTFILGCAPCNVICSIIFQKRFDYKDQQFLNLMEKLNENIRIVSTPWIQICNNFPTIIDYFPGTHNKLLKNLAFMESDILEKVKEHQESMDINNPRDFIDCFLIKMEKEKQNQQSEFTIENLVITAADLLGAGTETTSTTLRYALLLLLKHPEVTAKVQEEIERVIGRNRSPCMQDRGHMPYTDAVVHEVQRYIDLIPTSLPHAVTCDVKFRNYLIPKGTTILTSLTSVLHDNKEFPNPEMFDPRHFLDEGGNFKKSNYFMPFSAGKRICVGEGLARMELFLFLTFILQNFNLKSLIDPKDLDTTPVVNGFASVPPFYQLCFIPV

Compound	tested on	assay	system	conditions	scale	endpoint	value
CC[C@H](C)[C@H](NC(=O)[C@H](CCCCN)NC(=O)[C@H](CS)NC(=O)[C@H](C)NC(=O)[C@H](CC(N)=O)NC(=O)[C@H](CCCNC(=N)N)NC(=O)[C@H](CCCNC(=N)N)NC(=O)[C@H](CC(N)=O)NC(=O)[C@H](CCCNC(=N)N)NC(=O)[C@H](CCCNC(=N)N)NC(=O)[C@H](C)NC(=O)[C@H](CS)NC(=O)[C@H](CO)NC(=O)[C@@H](NC(=O)[C@@H](NC(=O)[C@H](CS)NC(=O)[C@H](CCCCN)NC(=O)[C@@H](N)CCCNC(=N)N)C(C)C)[C@@H](C)CC)C(=O)N[C@@H](CC(C)C)C(=O)N[C@@H](CS)C(=O)N[C@@H](CC(N)=O)C(=O)O	–	LC-MS	PBS	0.1 mg/mL	–	single disulfide form	19%
O=C([O-])CN1CCN(CC(=O)[O-])CCN(CC(=O)NCCc2ccc3c(c2)C2C=CCC2C(c2cc4c(cc2Br)OCO4)N3)CCN(CC(=O)[O-])CC1.[111In+3] (stereo not drawn)	Hec50 tumour model	–	host not given, bone	2 h, tumour-bearing	–	tracer uptake	0.17 %ID/g
CO[C@@H]1[C@H](OC(=O)N[C@H]2CC[C@H](N)CC2)CC[C@]2(CO2)[C@H]1[C@@]1(C)O[C@@H]1CC=C(C)C	–	–	Sprague-Dawley rat, male, plasma	iv bolus, dose not given	relative to: compound over TNP-470	half-life ratio	4 fold
COc1cc2c(cc1OC)CN(CCCCn1ccc3cc(OCC[18F])ccc31)C2	–	–	male ICR mice	intravenous, 15 min post-injection	–	liver uptake	14.7 ± 2.01 %ID/g
CC(=O)N[C@@H](CCC(N)=O)C(=O)N[C@@H](CCC(N)=O)C(=O)N[C@@H](CCCCN)C(=O)N[C@@H](Cc1ccccc1)C(=O)N[C@@H](CCC(N)=O)C(=O)N[C@@H](Cc1ccccc1)C(=O)N[C@@H](CCC(N)=O)C(=O)N[C@@H](Cc1ccccc1)C(=O)N[C@@H](CCC(=O)O)C(=O)N[C@@H](CCC(N)=O)C(=O)N[C@@H](CCC(N)=O)C(N)=O	–	negative-stain TEM	1× PBS	0.2 mM	–	nanofiber width	9.18 ± 1.67 nm
NCCC(=O)N1Cc2ccccc2-c2c(nnn2-c2nc3c(N)ncnc3n2C2OC(CO)C(O)C2O)-c2ccccc21 (mixture of isomers)	–	–	methanol	red edge of spectrum	–	second excitation maximum	360 nm
C=C(c1ncc(C(=O)O)cn1)c1cc2c(cc1C)C(C)(C)CCC2(C)C	–	–	Sprague-Dawley rat, male, plasma	oral, 100 mg/kg, 1 h, sesame oil vehicle	–	LDL level	36 ± 11.1 mg/dL
C#CCOc1ccc(/C=C2\SC(=O)N(CC(=O)NCc3ccccc3)C2=O)cc1	–	inverse Kirkwood-Buff integrals	binary solvent mixture	concentration not given, 298.15 K, mole fraction x1 0.45	–	correlation volume	3760 cm³/mol
CC(=O)N[C@H](C(=O)N[C@H](C(=O)N[C@@H](CCCNC(=N)N)C(=O)N1Cc2ccccc2C[C@H]1C(=O)N[C@@H](Cc1ccccc1)C(N)=O)C1CCCCC1)C(C)C	human PBMC	Bio-Plex multiplex, measured: PDGF-bb	–	500 µg/mL, 24 h	–	cytokine level	1250 ± 710 pg/mL
CC(C)CCCC(C)CCCC(C)CCOC1OC[C@H](O)[C@H](O)[C@H]1O (stereo partly drawn)	–	drop shape tensiometry	water	room temperature	–	surface tension at CMC	27.3 mN/m
COC(=O)C1OC(Oc2c(-c3ccccc3)oc3cc(O)c(O)c(O)c3c2=O)C(O)C(O)C1O (stereo not drawn)	–	–	BALB/c mouse, spleen	5 mg/kg	–	organ weight	0.74 ± 0.2 g
[64Cu+2].c1ccc(CNCc2ccc(CN3CCCN4CCNCCCN(CC4)CC3)cc2)nc1	CXCR4	–	NOD/SCID mouse, U87 and U87-stb-CXCR4 xenografts, muscle	iv, 480 min, ex vivo	–	tissue uptake	0.27 ± 0.05 %ID/g
COc1cc2ncnc(Oc3ccc4c(C(N)=O)c(C)oc4c3)c2cc1OC	–	–	human, moderate hepatic impairment, plasma	oral, dose not given, dose-normalized, metabolite	relative to: normal hepatic function	decrease in Cmax	17%
C[C@H](NC(=O)[C@H](CCCNC(=N)N)N(C)C(=O)[C@@H]1CCCN1C(=O)[C@H](CCCNC(=N)N)NC(=O)CNC(=O)c1ccc2c(c1)C1(OC2=O)c2ccc(O)cc2Oc2cc(O)ccc21)C(=O)N[C@@H](Cc1ccccc1)C(=O)N[C@H](C(=O)N[C@@H](Cc1ccccc1)C(=O)N(C)[C@@H](C)C(N)=O)[C@@H](C)O	–	–	cytosolic lysate	–	relative to: LNCaP over HeLa lysate	breakdown rate ratio	> 5
Cc1ccc(/N=N/c2c(O)ccc3ccccc23)c(C)c1	–	–	rat whole blood	16.0 µg/L, freeze-thaw cycle 3	–	freeze-thaw stability deviation	0.9%
COc1cc(C)c(Cc2ccc(O)cc2)cc1[C@@H]1S[C@H](CO)[C@@H](O)[C@H](O)[C@H]1O	–	–	Japanese T2DM patients, plasma	2.5 mg luseogliflozin, day 1, once daily	–	Tmax	3.31 ± 2.53 h
C=CCc1ccc(O)c(-c2cc(CC=C)ccc2OCCCCCCCCCC[P+](c2ccccc2)(c2ccccc2)c2ccccc2)c1	–	–	C57BL/6 mouse, non-tumour-bearing	dose not given, day 31	–	serum albumin	2.7 ± 0.1 g/dL
Cn1c(=O)oc2ccc(-c3ccc(CC(C#N)NC(=O)C4CNCCCO4)c(F)c3)cc21 (stereo not drawn)	–	–	human	oral, 10 mg once daily, treatment-related AE, multiple ascending dose	–	skin exfoliation incidence	0%
NS(=O)(=O)c1ccc(N2N=C(C(F)(F)F)CC2c2ccc(F)cc2F)cc1 (stereo not drawn)	–	–	Beagle dog, both sexes, plasma	oral, 1 mg/kg, single dose	–	AUC(0-t)	14500 ± 10800 ng·h/mL
C=CC(=O)Nc1cc(Nc2nccc(-c3cn(C)c4ccccc34)n2)c(OCC(F)(F)F)nc1N(C)CCN(C)C	Cytochrome P450 2C19 (CYP2C19, Homo sapiens, UniProt P33261)	enzyme activity, inhibitor	human, liver microsomes	0.1 µM	–	activity vs control	94.6%

Compound	tested on	assay	system	conditions	scale	endpoint	value
CC/C=C\C/C=C\C/C=C\C/C=C\C/C=C\CCCCOC(CC)C(=O)O (stereo not drawn)	–	[14C] label	male Wistar rat, kidney medulla	oral, 100 mg/kg, 2 h	–	radioactivity concentration	148 µg equiv/g
[11CH3]Oc1ccc(Cc2cn[nH]c2)nc1-c1cccc([N+](=O)[O-])c1	–	–	rat, brain ex vivo	i.v., 30 min	–	parent radioligand fraction	63.3 ± 3%
O=C(NC1CC1)N1CC=C(c2cc3c(Nc4cc5ncsc5cc4F)ncnc3s2)CC1	–	metabolic stability	human, liver microsomes	–	–	half-life	> 2 h
C[Si](C)(C)C[C@@H](CN)CC(=O)O	–	neuromuscular coordination	Wistar rat male	oral, 300 mg/kg, 1 h	–	performance time	180 s
CCc1cc(C)nc2c(CC(=O)N(CC)CC)c(-c3ccc(OCC[18F])cc3)nn12	–	–	rat, plasma	60 min	–	parent radioligand in plasma	64.8%
[64Cu+2].c1cnc(CNCc2ccc(CN3CCCN4CCNCCCN(CC4)CC3)cc2)nc1	C-X-C chemokine receptor type 4 (CXCR4, Homo sapiens, UniProt P61073)	–	NOD/SCID mice, U87 xenografts, U87-stb-CXCR4 tumour	120 min post-injection	–	tissue uptake	26 ± 4.53 %ID/g
Cc1ccc(OCC(=O)O)cc1	–	–	Sprague-Dawley rat, male, plasma	oral gavage, 100 mg/kg of parent drug	–	Cmax	9620 ± 4650 ng/mL
C=C(c1ccc(C(=O)O)c(F)c1)c1cc2c(cc1C)C(C)(C)C=CC2(C)C	–	–	Sprague-Dawley rat, male, plasma	oral, 100 mg/kg, 3 h, sesame oil vehicle	–	LDL level	18 ± 2.5 mg/dL
CC(C)C[C@@H](NC(=O)[C@H](NC(=O)[C@H]1CCCN1)[C@H](C)O)C(=O)N[C@H](Cc1c[nH]cn1)C(=O)N[C@@H](C(=O)N[C@H](Cc1c[nH]cn1)C(=O)N[C@H](CC(N)=O)C(=O)N[C@H](CCCNC(=N)N)C(=O)N[C@H](CCCNC(=N)N)C(=O)N[C@H](CCCNC(=N)N)C(=O)N[C@H](CCCNC(=N)N)C(=O)N[C@H](CCCNC(=N)N)C(N)=O)[C@H](C)O	–	–	Beagle dog, CSF	oral, 50 mg/kg, last 2 time points	–	apparent half-life	119 ± 37 h
CCCC[C@H](NC(=O)CNC(=O)CNC(=O)CN1CCN(CC(=O)O)CCN(CC(=O)O)CCN(CC(=O)O)CC1)C(=O)N[C@H]1CC(=O)NCCCC[C@@H](C(N)=O)NC(=O)[C@H](Cc2c[nH]c3ccccc23)NC(=O)[C@H](CCCNC(=N)N)NC(=O)[C@@H](Cc2ccccc2)NC(=O)[C@H](Cc2c[nH]cn2)NC1=O [copper-64 labelled]	–	–	female C57 mouse, B16/F1 melanoma	intravenous, 0.037 MBq, 0.5 h	relative to: tumour over stomach	uptake ratio	1.98
C[Si]1(C[C@H](CN)CC(=O)O)CCCC1	–	neuromuscular coordination	Wistar rat male	oral, 300 mg/kg, 3 h	–	performance time	180 s
O=C([O-])CN1CCN(CC(=O)[O-])CCN(CC(=O)c2ccc(-c3ccc(OCC(=O)O)cc3)cc2)CCN(CC(=O)[O-])CC1.[Eu+3]	–	–	PBS	pH 7.4	–	absorption cut-off wavelength	403 nm
CCCCCCCC(=O)C(=O)C(O)CO (stereo not drawn)	–	pressure-area isotherm	Escherichia coli lipid monolayer	68 Å^2 per lipid, in subphase	–	surface pressure increase	~26%
COc1cc(NC(C)=O)c2c(c1O)-c1c(OC)c(OC)cc3c1C(C2)N(C)CC3 (stereo not drawn)	–	–	rat kidney homogenate	50 µg/mL, 40 d, -20 °C, long-term storage	–	remaining compound	88.4 ± 1.9%
CC(C)(C)ONc1nc(Nc2ccnc(C(F)(F)F)c2)nc(-c2cccc(C(F)(F)F)n2)n1	–	–	female Balb/cA nude mice xenograft, plasma	oral, 18.05 mg/kg	–	AUC(0-24 h)	25100 ng·h/mL
CC(NC(=O)OC1OC(C(=O)O)C(O)C(O)C1O)c1cc(Cl)ccc1Cn1c(=S)[nH]c(=O)c2[nH]ccc21 (stereo not drawn)	–	equilibrium dialysis	beagle dog, male, plasma	10 µM, 16 h, 37 °C	–	unbound fraction	36 ± 3.1%
COc1ccc(/C=C/c2ccc(-c3ccc(C)cn3)nc2)cc1	–	TCSPC	dioxane	–	–	radiative decay rate constant	0.6 ns⁻¹
CC12CC(c3ccc(S(C)(=O)=O)cc3)C3=C4CCC(=O)C=C4CCC3C1CCC2(O)C(F)(F)C(F)(F)F (stereo not drawn)	–	–	human	oral, 5 mg single	relative to: subjects	drug-related headache incidence	50%
CCCC(CCC)NC(=O)c1ccc(OC2OC(C(=O)O)C(O)C(O)C2O)c(O)c1 (stereo not drawn)	–	–	male Sprague-Dawley rats, plasma	oral, 50 mg/kg of parent drug	relative to: 50 over 20 mg/kg dose	AUC(0-last) ratio	1.86

For quick reference, copied from above:
Compound	tested on	assay	system	conditions	scale	endpoint	value
C=CC(=O)Nc1cc(Nc2nccc(-c3cn(C)c4ccccc34)n2)c(OCC(F)(F)F)nc1N(C)CCN(C)C	Cytochrome P450 2C19 (CYP2C19, Homo sapiens, UniProt P33261)	enzyme activity, inhibitor	human, liver microsomes	0.1 µM	–	activity vs control	94.6%
CC/C=C\C/C=C\C/C=C\C/C=C\C/C=C\CCCCOC(CC)C(=O)O (stereo not drawn)	–	[14C] label	male Wistar rat, kidney medulla	oral, 100 mg/kg, 2 h	–	radioactivity concentration	148 µg equiv/g
